Experimental data pooled from the literature.
Protocols differ between the studies behind these lines. ± marks the error that the study gave.
APP: Amyloid-beta precursor protein (APP, Homo sapiens, UniProt P05067)
Sequence of UniProt P05067 (whole entry, looked up): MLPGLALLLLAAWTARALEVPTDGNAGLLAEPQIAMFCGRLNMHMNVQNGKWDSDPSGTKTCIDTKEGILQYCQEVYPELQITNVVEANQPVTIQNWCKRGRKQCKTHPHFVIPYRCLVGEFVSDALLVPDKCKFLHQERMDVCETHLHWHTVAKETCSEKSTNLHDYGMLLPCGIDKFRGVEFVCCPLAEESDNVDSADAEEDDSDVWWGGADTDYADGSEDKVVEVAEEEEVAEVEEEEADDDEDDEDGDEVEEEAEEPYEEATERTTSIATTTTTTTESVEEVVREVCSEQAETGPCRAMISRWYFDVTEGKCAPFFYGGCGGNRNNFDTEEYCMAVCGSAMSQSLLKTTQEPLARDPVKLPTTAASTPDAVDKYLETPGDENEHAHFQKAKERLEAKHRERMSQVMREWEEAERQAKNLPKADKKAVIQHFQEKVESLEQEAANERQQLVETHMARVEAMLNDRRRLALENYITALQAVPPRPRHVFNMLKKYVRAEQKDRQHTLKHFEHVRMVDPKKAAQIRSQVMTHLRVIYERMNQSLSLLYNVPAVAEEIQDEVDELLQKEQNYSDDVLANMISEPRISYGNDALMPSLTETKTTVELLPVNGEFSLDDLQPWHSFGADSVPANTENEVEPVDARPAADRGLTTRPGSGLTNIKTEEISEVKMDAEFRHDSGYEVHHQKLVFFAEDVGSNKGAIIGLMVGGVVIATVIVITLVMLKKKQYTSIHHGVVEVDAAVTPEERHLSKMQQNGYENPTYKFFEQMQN
lasR: Transcriptional activator protein LasR (lasR, Pseudomonas aeruginosa, UniProt P25084)
Sequence of UniProt P25084 (whole entry, looked up): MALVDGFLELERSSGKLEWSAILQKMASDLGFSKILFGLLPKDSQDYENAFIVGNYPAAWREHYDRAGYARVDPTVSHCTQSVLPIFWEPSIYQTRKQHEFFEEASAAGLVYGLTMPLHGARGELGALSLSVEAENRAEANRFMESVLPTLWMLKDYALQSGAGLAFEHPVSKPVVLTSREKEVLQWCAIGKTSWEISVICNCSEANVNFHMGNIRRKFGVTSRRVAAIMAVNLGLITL
Sequence of UniProt Q86TI2 (whole entry, looked up): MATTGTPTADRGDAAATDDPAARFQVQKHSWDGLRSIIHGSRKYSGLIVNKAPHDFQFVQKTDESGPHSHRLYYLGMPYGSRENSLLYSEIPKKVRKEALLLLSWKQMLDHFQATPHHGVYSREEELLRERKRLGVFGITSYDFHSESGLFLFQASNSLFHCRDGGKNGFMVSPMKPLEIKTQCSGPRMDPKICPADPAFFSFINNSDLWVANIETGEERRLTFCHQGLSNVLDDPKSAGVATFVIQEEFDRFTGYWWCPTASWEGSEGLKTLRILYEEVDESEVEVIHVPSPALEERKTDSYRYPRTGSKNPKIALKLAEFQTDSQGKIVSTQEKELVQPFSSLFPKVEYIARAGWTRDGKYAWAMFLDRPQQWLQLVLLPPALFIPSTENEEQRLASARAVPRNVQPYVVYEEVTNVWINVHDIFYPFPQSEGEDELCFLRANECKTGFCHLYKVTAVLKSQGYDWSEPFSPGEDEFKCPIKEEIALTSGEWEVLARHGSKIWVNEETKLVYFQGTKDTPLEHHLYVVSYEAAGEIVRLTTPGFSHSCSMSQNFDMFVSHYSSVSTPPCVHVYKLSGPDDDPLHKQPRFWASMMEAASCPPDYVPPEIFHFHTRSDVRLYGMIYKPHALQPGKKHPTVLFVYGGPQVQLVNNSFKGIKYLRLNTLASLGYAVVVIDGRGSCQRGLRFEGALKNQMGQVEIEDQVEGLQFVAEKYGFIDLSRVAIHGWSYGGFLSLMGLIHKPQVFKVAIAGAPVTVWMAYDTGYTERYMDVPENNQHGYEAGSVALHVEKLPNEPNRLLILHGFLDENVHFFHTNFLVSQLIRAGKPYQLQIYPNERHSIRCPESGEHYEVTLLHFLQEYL
Sequence of UniProt P17301 (whole entry, looked up): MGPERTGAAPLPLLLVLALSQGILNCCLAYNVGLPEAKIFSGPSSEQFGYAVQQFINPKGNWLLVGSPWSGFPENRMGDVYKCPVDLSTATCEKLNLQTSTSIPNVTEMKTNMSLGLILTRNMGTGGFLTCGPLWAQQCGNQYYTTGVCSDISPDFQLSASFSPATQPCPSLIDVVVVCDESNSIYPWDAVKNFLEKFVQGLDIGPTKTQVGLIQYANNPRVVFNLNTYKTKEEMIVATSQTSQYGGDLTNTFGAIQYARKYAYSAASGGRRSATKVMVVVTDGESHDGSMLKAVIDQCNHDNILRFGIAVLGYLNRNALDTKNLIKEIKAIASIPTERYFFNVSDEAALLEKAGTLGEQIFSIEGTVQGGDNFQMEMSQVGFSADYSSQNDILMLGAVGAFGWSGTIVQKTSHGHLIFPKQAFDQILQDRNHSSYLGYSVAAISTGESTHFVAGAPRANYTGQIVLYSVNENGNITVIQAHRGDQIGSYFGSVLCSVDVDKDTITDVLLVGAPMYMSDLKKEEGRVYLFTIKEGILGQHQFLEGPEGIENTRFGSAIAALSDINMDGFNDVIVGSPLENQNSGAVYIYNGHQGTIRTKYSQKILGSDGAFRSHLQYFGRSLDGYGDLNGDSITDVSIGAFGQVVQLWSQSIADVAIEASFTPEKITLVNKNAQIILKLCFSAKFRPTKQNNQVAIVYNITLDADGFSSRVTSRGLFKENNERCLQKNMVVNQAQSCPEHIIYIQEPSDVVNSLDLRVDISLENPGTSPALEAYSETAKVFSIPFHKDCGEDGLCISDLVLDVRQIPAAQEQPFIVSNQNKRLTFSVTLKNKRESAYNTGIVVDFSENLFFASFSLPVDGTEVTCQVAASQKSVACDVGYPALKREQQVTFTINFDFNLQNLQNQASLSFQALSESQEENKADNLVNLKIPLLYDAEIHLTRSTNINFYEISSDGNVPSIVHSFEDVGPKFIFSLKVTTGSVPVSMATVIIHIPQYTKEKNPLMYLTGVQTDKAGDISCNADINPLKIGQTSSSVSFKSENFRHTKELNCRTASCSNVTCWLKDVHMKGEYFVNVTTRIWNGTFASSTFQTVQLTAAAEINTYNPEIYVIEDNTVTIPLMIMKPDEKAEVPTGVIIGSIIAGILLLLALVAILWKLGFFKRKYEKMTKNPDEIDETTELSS
Sequence of UniProt Q15858 (whole entry, looked up): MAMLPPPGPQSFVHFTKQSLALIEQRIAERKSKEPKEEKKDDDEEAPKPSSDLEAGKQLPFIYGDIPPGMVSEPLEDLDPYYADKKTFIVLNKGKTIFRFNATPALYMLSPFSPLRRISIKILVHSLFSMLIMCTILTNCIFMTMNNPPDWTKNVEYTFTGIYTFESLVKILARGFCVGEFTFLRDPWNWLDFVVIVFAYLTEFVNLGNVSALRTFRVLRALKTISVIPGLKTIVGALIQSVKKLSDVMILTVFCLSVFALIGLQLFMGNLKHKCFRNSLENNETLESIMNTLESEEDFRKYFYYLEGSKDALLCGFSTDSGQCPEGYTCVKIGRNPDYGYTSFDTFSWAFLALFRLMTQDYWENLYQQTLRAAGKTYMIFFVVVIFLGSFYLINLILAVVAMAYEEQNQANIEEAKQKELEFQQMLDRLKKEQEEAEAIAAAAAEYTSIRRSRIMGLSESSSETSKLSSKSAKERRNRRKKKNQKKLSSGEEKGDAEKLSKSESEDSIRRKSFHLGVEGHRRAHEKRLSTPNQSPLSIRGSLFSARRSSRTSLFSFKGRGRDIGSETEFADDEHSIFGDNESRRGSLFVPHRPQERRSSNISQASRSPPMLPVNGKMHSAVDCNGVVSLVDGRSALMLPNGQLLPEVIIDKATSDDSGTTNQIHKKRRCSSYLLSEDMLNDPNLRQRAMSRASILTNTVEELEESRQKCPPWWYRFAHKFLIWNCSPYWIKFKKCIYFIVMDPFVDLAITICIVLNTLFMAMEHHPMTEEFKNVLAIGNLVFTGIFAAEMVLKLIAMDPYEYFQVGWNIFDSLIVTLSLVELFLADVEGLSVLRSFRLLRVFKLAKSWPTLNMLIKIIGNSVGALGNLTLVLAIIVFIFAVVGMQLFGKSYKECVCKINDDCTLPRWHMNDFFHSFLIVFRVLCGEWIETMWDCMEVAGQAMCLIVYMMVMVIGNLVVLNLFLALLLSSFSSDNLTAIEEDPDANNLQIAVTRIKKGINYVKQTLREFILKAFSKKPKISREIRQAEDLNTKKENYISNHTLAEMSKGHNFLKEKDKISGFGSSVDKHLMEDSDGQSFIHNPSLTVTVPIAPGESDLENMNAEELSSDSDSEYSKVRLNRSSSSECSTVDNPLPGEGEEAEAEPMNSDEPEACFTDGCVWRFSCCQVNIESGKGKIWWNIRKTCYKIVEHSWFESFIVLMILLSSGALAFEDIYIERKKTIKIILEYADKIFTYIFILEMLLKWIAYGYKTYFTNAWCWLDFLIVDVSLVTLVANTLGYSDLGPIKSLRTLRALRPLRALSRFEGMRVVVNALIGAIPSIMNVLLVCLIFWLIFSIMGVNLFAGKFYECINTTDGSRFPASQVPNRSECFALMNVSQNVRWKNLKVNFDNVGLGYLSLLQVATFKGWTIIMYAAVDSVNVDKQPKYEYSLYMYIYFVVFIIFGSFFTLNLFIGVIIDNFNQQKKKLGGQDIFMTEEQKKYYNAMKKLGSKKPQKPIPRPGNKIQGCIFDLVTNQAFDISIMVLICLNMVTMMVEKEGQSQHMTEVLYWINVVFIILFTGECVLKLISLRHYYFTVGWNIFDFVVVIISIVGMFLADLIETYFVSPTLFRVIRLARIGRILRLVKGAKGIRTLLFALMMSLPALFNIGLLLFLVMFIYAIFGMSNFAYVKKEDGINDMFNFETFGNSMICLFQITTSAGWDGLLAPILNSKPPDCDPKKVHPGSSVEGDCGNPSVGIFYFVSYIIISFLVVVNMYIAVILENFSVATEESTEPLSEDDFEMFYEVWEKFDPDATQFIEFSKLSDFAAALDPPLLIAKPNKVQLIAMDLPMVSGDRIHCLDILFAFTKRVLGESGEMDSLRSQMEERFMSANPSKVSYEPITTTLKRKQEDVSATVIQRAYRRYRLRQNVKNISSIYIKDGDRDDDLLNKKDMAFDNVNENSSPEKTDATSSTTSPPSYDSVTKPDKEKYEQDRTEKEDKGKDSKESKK

CCOC(=O)/C=C/c1c(-c2ccc(C)cc2)nc2ccc(/N=N/c3ccc([N+](=O)[O-])cc3)cc2c1-c1ccccc1 — inhibition (APP; fibril formation, ThT fluorescence; PBS; concentration not given, 24 h, 37 °C, together with: Aβ42 25 µM): 77.2 ± 2.5%
CC(C)C[C@H](N)C(=O)CCl — inhibition (cathepsin H (Capra hircus, UniProt A0A452G5L2); goat liver; 10 µM, pH 7.0, together with: Leu-βNA): ~93.5%
CCCCCc1cn(CC(=O)N[C@H]2CCOC2=O)nn1 — inhibition (lasR; reporter gene, antagonist; 100 µM, together with: OdDHL 10 nM): 55%
CCN(Cc1ccccc1)C(=O)CCc1nc(CN2CCN(C(=O)Cc3ccc(OC)c(OC)c3)CC2)no1 — V1/2 of activation (SCN9A (Homo sapiens, UniProt Q15858); whole-cell patch clamp; HEK stable; 300 nM): -40 ± 2.06 mV
Ic1ccccc1/N=N/c1ccc2nc(-c3ccccc3)cc(-c3ccccc3)c2c1 — inhibition (APP; amyloid aggregation, inhibitor, fluorescence; 25 µM): 66%
CC(=O)NC(Cc1ccc(Br)c(Cl)c1)C(=O)N[C@@H](C)C(=O)N1CCC[C@H]1C(=O)N1CCC[C@H]1C(=O)N[C@@H](CCC(=O)O)C(=O)N[C@@H](Cc1c[nH]cn1)C(=O)N[C@@H](CO)C(=O)N[C@H](C(=O)N[C@@H](C)C(N)=O)[C@@H](C)OP(=O)(O)O (stereo partly shown) — inhibition (PDGFRA (Homo sapiens, UniProt P16234); enzyme activity, inhibitor; 10 µM): 4.04%
O=C(N[C@H]1CCOC1=O)c1ccc(-c2cn(-c3ccc4[nH]ccc4c3)nn2)cc1 — inhibition (lasR; reporter gene, antagonist; 100 µM, together with: OdDHL 10 nM): 23%
C[C@@H](O)[C@H](NC(=O)[C@H](CCCCN)NC(=O)[C@H](Cc1c[nH]c2ccccc12)NC(=O)CN)C(=O)N[C@@H](CCCNC(=N)N)C(=O)NC(C)(C)C(=O)N[C@@H](CCCNC(=N)N)C(=O)NC(C)(C)C(=O)N[C@H](C(=O)N[C@@H](CO)C(=O)N[C@@H](Cc1c[nH]cn1)C(=O)N[C@@H](Cc1ccc(O)cc1)C(=O)NCC(=O)O)[C@@H](C)O — inhibition (Integrin alpha-2, with integrin beta-1 (Homo sapiens, UniProt P17301); K562 expressing integrin α2; up to 1×1 µM; maximal): 40%
CCCCCn1cc(C(=O)c2cccc3ccccc23)c2ccccc21 — Emax difference (CNR2 (Homo sapiens, UniProt P34972); Gαi1 engagement, agonist, BRET; reference: CB1 minus CB2): ~70%
CN(C)CC1CCCCC1(O)c1cccc(O)c1 (stereo not shown) — Papp A-to-B (human P-glycoprotein; Caco-2 TC7 monolayer; 100 µM, 3 h, apical pH 7.4, basolateral pH 7.4, together with: cyclosporine A 10 µM): 11.7 ± 1.1 ×10⁻⁶ cm/s
CN(C)C=Nc1c(C#N)cnn1-c1ccc(F)c(Cl)c1 — inhibition (Aurora kinase B (AURKB, Homo sapiens, UniProt Q96GD4); kinase activity; concentration not given): no inhibition
CN[C@](C)(C[18F])C(=O)O — tracer uptake (MDA-MB-468 tumour model; host not given, muscle; 1 h, tumour-bearing): 1.3 %ID/g
O=C1NC(=O)c2c1c1cc(F)c[n+]3c1c1c2c2cc(O)ccc2[n]1[Ru-4]312([N]=C=S)[S+]3CC[S+]1CC[S+]2CC3 (stereo not shown) — inhibition (RPS6KB1 (Homo sapiens, UniProt P23443); enzyme activity, inhibitor; 0.1 µM): 93%
COC(=O)[C@@H]1CCCN1C(=O)[C@@H](O)[C@H](N)CC(C)C — inhibition (DPP9 (Homo sapiens, UniProt Q86TI2); enzyme activity, inhibitor; concentration not given, together with: Ala-Pro-AMC substrate): no inhibition
CC(C)C[C@H](NC(=O)[C@H](Cc1ccccc1)NC(=O)CNC(=O)CNC(=O)[C@@H](N)Cc1ccc(O)cc1)C(=O)O — off time constant (rat locus coeruleus neurons; K+ current, agonist): 24 ± 2 s
O=C(Cn1cc(-c2ccccc2)nn1)N[C@H]1CCOC1=O — inhibition (lasR; reporter gene, antagonist; 100 µM, together with: OdDHL 10 nM): 56%

A few entries again:
CCOC(=O)/C=C/c1c(-c2ccc(C)cc2)nc2ccc(/N=N/c3ccc([N+](=O)[O-])cc3)cc2c1-c1ccccc1 — inhibition (APP; fibril formation, ThT fluorescence; PBS; concentration not given, 24 h, 37 °C, together with: Aβ42 25 µM): 77.2 ± 2.5%
CC(C)C[C@H](N)C(=O)CCl — inhibition (cathepsin H (Capra hircus, UniProt A0A452G5L2); goat liver; 10 µM, pH 7.0, together with: Leu-βNA): ~93.5%
